Experimental data collected from several papers.
Each numbered part is a random draw from the data of one study; scales do not carry over between parts. Changes are numbered by the printed parent chain.

Set 1 — method: RNA Bind-n-Seq; molecule type: RNA; medium: in vitro; tested at: 365 nM; reference: no-protein control; direction: higher = stronger binding
Target: RNA binding protein fox-1 homolog 2, RRM domain, GST-SBP tag (RBFOX2, Homo sapiens, UniProt O43251-10, residues 100-194)
Setting: natural RNA segment, single round, ends assumed
Constant ends, left off below: GGGAGUUCUACAGUCCGACGAUC … UGGAAUUCUCGGGUGCCAA
Residues (chain): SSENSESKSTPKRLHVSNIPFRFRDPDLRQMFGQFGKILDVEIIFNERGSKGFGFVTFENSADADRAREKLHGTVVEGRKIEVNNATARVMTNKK
Strand | RBNS enrichment (R)
UGAACUCAGAACUGUCGGAGGAAAGACAACACAACCAACGCGAAACCAAUUCCUCAUCCUCAGAUGCUCAAAGUUGUUUUUUUUGUUUGUUUGUUUAUUAGAUGAAUUAU | 0.271
UGUGUUCGUGCGUGUGUGUGCGUACGUGUAUAUAACUGAAGUGUCUGUACGGAAUGCCCUUUGCUAGCCAUGGGCUGGUCACCAGAUUGUUUUGUAAUGCCCGCCCCUUG | 2.81
GCAGCCUGUGCAGGGUCUCUGUCCUCAGAGCUCCAGACACCAGCAUCCUACUCUCAAGGAUGAAGUCUCCAGCCUGUGGAGCCAGCCUAGCUCCUAACUGUCAGGCUGAC | 0.345
UUAAGUGAGAUGGAAAAGCUGAAUGCUGACACACCCCACCCAUAAGCAAAGUAUCAACGCUUUCUGAUUUCCAGUACUGGGUGUUGAACCCAGAGCCUUUUAUAUGCUGG | 0.289
AAUAAUUCACAGAUUAUAGCUUAUUUUUAAUUAAUUUAUUUAUUUUGAAACAGUUUCACUGUGUCUGCCUGACUGGUCUGAAACUCACUAAGUAAACCAGGCUAGUUUCA | 0.448
AAGUUGUUCAAAAUACAUUAUUAGAUAAUUCUAAAGUGAGAAAAAUUAGAUUCUAAAACACAAAUCACAAGAACGUUUGAUAUUGAAGUGUCUGGCUUUAACAUGUGAUU | 0.396
GGAACAGGAACUCAGGGUGCCCUUACCCCCUCCCCAGACCUGUUCCCUUUCUUUGACUGACAGAGCACCAUCCAGGCAAAAUUAGAGCGCCAAAUGGUUUUCUUCUCAAU | 0.302
GAACAUUUGAAAUCCAUUUUGAUAAACCUGCUGUUAAUGUUUUUUCCCCCCUUGUGAAUGUUUUCUAACUUUGUCUUGGUAAUUGCAAUUUAACUAGGUGCGGUGGCUAC | 0.912
ACUAAGGCCUCUUGAUUCUUUCCCCUUGAACACUAUGAGCACUGACAAAUCAUGGUAGAGGUGCCCACCAACCAGUUUGCACAGUGGAGGCCACCUGACAUGCAUUAGCC | 0.645
ACUCAUUUCCACAGUUAGAUACGGAUGUGUUGAUGUAUUUCGUCUAGUUUAUUUGGCUCAGUCCACAGCUGCGUUGGAGUGGUGACUUUGGUAGCCCUUGAGCUCUAAUU | 0.461
CACCAAGUUCAGCCCAAAAUGAUAUUCUUUUCAGUCCUGUGGGGGAAGGACCGGCUUUAUCUCAUGAUGCCUUUCUGAGACUUGACCGUUAUGAGCUGAACAUAAAAAGU | 0.775
CAAGAGUUGUGACAACUUCCUGAGGGAUCUAUACUUGCUUUGUGUUCUUUGUGUCAACAUGAACAAAUUUUAUUUGUAGGGGAACUCAUUUGGGGUGCAAAUGCUAAUGU | 0.392

Set 2 — method: protein binding microarray; molecule type: double-stranded DNA, one strand shown; medium: in vitro; tested at: not given; reference: not given; direction: higher = stronger binding
Target: Histone acetyltransferase KAT6A, both winged helices, GST fusion (KAT6A, Homo sapiens, UniProt Q92794, residues 1-181)
Setting: 8-mer, flanks averaged, mean of 2 arrays, mostly near background
Construct (chain): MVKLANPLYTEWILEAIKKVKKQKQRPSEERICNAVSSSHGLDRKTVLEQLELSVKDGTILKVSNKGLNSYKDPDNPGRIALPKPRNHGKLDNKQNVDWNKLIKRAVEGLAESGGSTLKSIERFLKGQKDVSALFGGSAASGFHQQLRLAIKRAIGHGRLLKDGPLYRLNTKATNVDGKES
Strand | E-score
CGATCCTA | -0.0635
CCGCACCA | 0.0635
CGGGGGCA | 0.0233
AAACTTTG | 0.117
CAAGTGCG | 0.153
ACCACGAA | -0.125
TGTCCTAA | -0.133
CAAGATGG | -0.102
GCAGCGTA | 0.0504
CAAGCTAC | -0.0872

Set 3 — target: CCNB3, cyclin fold, Cln2 fusion (human); method: yeast growth competition, sequencing; medium: yeast; setting: weak parent motif; reference: not given; direction: higher = stronger binding
Starting sequence: WEE1 docking peptide (human); HKTFRKLRLFDTP
Variant | normalised enrichment score
HKTFRKLPLFDTP [R8P] | 0.048
HKTFRKLRLFDTA [P13A] | 0.209
HKTERKLRLFDTP [F4E] | -0.252
HKTFRKLHLFDTP [R8H] | 0.553
HKTFRKLRKFDTP [L9K] | 0.439
HKTFRKLRLADTP [F10A] | 0.491
HKTFRLLRLFDTP [K6L] | -0.151
HKTFSKLRLFDTP [R5S] | 0.0878
HKTFRHLRLFDTP [K6H] | -0.0852
HKTFRYLRLFDTP [K6Y] | 0.874

Further values, each from its own experiment
Molecule | target | assay | system | conditions | how to read | quantity | result
PhoQ, residues 284 288 289 292 302 303 TVTVVA | PhoP, residues 12 14 15 18 19 LYHSL (Escherichia coli, UniProt P23836) | Sort-seq, refers to: YFP reporter | E. coli | PhoQ-PhoP variant library, with: 10 µM Mg2+ | reference: high Mg2+ state, higher = stronger signaling | fold induction | 1.1

For quick reference, copied from above (set 3):
Variant | normalised enrichment score
HKTFRKLRLFDTA [P13A] | 0.209
HKTERKLRLFDTP [F4E] | -0.252
HKTFRKLHLFDTP [R8H] | 0.553
HKTFRKLRKFDTP [L9K] | 0.439
HKTFRKLRLADTP [F10A] | 0.491
HKTFRLLRLFDTP [K6L] | -0.151
